# Published values pooled from the literature.
# Every numbered part comes from another study and shows a few of its results, in no order. Substitutions count along the parent as printed.

# Block 1 — technique: RNA Bind-n-Seq; form: RNA; matrix: in vitro; tested at: 365 nM; reference: no-protein control; direction: higher = stronger binding
# Target: RNA binding protein fox-1 homolog 2, RRM domain, GST-SBP tag (RBFOX2, Homo sapiens, UniProt O43251-10, residues 100-194)
# Setting: natural RNA segment, single round, ends assumed
# Constant ends, left off below: GGGAGUUCUACAGUCCGACGAUC … UGGAAUUCUCGGGUGCCAA
# Residues (chain): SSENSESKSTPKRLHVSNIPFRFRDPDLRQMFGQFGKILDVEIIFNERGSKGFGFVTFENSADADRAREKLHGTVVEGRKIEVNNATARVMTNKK
Strand,RBNS enrichment (R)
AUUGUUCACGGAAAACAGAUCUUCUUCUCUCUUGUCCACCUAUUAAUUGUUUACAAUAUUUGUACAUCUAUGCAAAAUACUUGAAUGGGCCAUGGUGCCUUUUUUCCUUG,0.774
AGGCCUCCCUGUUUGAAGCCUGCCCUUGUCUGAGAUGCUGGUAAUGGCCAUGGUACCCCCUUCUGGGCAUCUGUUCUGGUUUUUAACCAUUGUCUUGUUCUGUGAUGAGG,1.54
UAUAGGACUUUAAAGCUCCUUUUGGCAUAGGGAAGUCACGAAGGAUUGCUUGACAUCAGGAGACUUGGGGGGGAUUGUAGCAGACGUCUGGGCUUUUCCCCACCCAGAGA,1.61
CCUAAGAAGUCUUCAAAAAUAGAUUGUACACCCGGUUUGACCUCACCCCCAUCCCACUGCUCUCUCUGAGCUGCAGCUGUAUGUAUAGCAGAUUAGGGGCUCCCUGGUUA,0.512
GCUCUCUUUGGGACCUGGCCGUGCUUCCUGCUCGUAUGACUACCAGGGGCCAUAUCUGUAUUAACUGGAUCAAGUAUAAGAAAAGCAAAGACUUCUCAGCUCUGACCUGC,1.29
UUGUAAAUAGUUGUUAUUUCUAUAUUUGGAUUGGUGAAAGACCUCAAGUUUAUAUGUAAAGACAUAACUGCCCUUAGUCAUGAAAUUGUUGUGACCUCUACUUUUUGUCA,0.61
UAAGUAGUUUUCAUGUUUUCAAUAUGCAGUUUUGAAAAUGAGGAUUCACCUAGACUUUUUUAGAUUUACUACUAGGAAACCUUCCUCAUAUGAAUAACCAUUUAUAUGUG,0.567
CAUUAUUAAUAUUUUUUUUAAACUAAUUUGGGGAGGGAGGGUUAGCUUAAGUGCUAAGUCAGGUGUGGAUCCACAGGAGGGUUCCAACAGAGUGUUUCCUCCACUGUAUA,0.948
CUGAUGUUGUGCACGUCAAUCACCGGGCACUUGCAUACUCUUAGAAACAGUUCGACUUCGGUUACUGCCUUCUCCCUUGAAAUCCUUGCUGCGUGCCCACCAGGAUUUCC,0.625
AGAAUGGCUCCAGCUGUGGGUGUGCACAAUGAGGGAGGAACUGCUUUCCCCCUUACUGUCAUUGGUCAGUGGAGCAGAUUCUCAUGGCUGUAGGUAGUUGCUACACAGGA,1.28
GCUGUCUUCAGAACUCUUGGAAAUCUUUACACAUGCGAGUGCUAACCACUUUGAGCAAGGCUGCCUUCUUGUAGAUGACUUGCUGUUCUUUAUGACAGGGAUCAGUGGCA,0.778
GGUAUCCCCCUGCCCCCUCAGUGUCCUUCCCUGUUCCCUCCCACUACUCCCCCAAGUUGGGGAAAGGAGGGGGAACCUACGAGAAAAACAGCUCAGGUUUUAUCACCGAC,0.331

# Block 2 — target: UBE2J1 UBC core domain (UniProt Q9Y385); technique: yeast two-hybrid; matrix: yeast; setting: mostly zero background; reference: not given; direction: higher = stronger interaction
# B1: TRIM38 RING domain (UniProt O00635); chain STKKMMEEATCSICLSLMTNPVSINCGHSYCHLCITDFFKNPSQKQLRQETFCCPQCRAPFHMDSLRP
# B2: PHF7 RING domain (UniProt Q9BWX1); chain IQHGHVGEESCILCCEDLSQQSVENIQSPCCSQAIYHRKCIQKYAHTSAKHFFKCPQCNNRKEFPQEML
# B3: TRIM55 RING domain (UniProt Q9BYV6); chain TMDNLEKQLICPICLEMFTKPVVILPCQHNLCRKCASDIFQASNPYLPTRGGTTMASGGRFRCPSCRHEVVLDRHG
# B4: RNF112 RING domain (UniProt Q9ULX5); chain QPMAPRELPTCSICLERLRDPISLDCGHDFCIRCFSTHRLPGCEPPCCPECRKICKQKRGLR
# B5: ANKIB1 RING domain (UniProt Q9P2G1); chain LSPGDLDTSLCDICMCSISVFEDPVDMPCGHDFCRGCWESFLNLKIQEGEAHNIFCPAYDCFQLVPVDIIE
# B6: TRIM52 RING domain (UniProt Q96A61); chain PMQTLQEEAVCAICLDYFKDPVSISCGHNFCRGCVTQLWSKEDEEDQNEEEDEWEEEEDEEAV
# B7: TRIM10 RING domain (UniProt Q9UDY6); chain SVTSLADEVNCPICQGTLREPVTIDCGHNFCRACLTRYCEIPGPDLEESPTCPLCKEPFRPGSFRP
# Residues (chain): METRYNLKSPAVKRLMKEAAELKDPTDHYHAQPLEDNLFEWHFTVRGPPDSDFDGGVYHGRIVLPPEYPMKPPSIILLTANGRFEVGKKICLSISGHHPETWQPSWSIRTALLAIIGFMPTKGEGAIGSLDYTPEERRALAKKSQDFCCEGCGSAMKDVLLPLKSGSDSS
Sequence,lacZ reporter activity
B1 (TRIM38 RING domain),0
B2 (PHF7 RING domain),0
B3 (TRIM55 RING domain),0
KRQCSDVDDICSICQAEFQKPILLICQHIFCEECMTLWFNREKTCPLCRTVISDHINKW (RNFT1 RING domain (UniProt Q5M7Z0)),0
B4 (RNF112 RING domain),0
B5 (ANKIB1 RING domain),0
KIKDLNEHIVCCLCAGYFVDATTITECLHTFCKSCIVKYLQTSKYCPMCNIKIHETQPLL (PCGF1 RING domain (UniProt Q9BSM1)),0
B6 (TRIM52 RING domain),0
B7 (TRIM10 RING domain),0

# Block 3 — target: CCND2, cyclin fold, Cln2 fusion (human); technique: yeast growth competition, sequencing; matrix: yeast; setting: weak parent motif; reference: not given; direction: higher = stronger binding
# Starting sequence: CDKN1A docking peptide (human); SKACRRLFGPVDS; partner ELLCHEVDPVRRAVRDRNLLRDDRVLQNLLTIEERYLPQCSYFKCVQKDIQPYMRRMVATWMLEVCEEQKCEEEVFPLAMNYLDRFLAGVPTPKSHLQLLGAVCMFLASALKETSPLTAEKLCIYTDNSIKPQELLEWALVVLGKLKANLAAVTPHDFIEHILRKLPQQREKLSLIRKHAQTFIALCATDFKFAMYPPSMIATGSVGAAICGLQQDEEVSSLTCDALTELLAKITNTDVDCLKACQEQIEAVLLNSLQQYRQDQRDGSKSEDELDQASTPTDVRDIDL
Variant,normalised enrichment score
P10A,0.493
R5F,-0.175
P10K,-0.0745
P10N,0.147
R5Q,0.0448
K2N,0.55
L7K,0.145
R5G,0.218
G9W,0.261
A3Y,-0.383
D12Q,-0.1
F8E,-0.454
K2Q,0.416
F8W,0.135
P10I,0.3
A3N,-0.267
L7H,0.176
D12A,0.0918
G9E,0.667

# Block 4 — technique: protein-binding microarray; form: double-stranded DNA, one strand shown; matrix: in vitro; tested at: 2540 nM top; setting: 60-bp whole probe; with: salmon DNA 0.4 mg/ml; reference: random background probes; direction: higher = stronger binding; constant ends, left off below: GCCTAGCAC … GTCTTGATTCGCTTGACGCTGCTG
# Target: Interferon regulatory factor 3, full length, phosphomimetic (IRF3, Homo sapiens, UniProt Q14653, residues 1-427, S386D/S396D/S398D/S402D/T404D/S405D)
# Construct (chain): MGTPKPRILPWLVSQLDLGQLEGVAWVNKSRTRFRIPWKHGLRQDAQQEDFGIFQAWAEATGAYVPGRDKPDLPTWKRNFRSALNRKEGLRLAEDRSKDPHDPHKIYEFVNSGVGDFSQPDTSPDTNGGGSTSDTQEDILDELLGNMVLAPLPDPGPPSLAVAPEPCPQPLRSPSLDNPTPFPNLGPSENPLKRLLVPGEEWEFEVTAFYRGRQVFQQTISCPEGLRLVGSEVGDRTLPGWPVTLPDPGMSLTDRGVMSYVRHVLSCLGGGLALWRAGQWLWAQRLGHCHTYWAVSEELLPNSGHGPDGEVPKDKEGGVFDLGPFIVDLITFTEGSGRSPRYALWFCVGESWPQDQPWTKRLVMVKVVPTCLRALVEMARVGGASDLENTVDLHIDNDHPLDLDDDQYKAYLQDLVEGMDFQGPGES
Strand,fitted relative affinity [z-score]
CTTATTCTCTACTTGTGTCTGTGCTAG,2.17
TTTACTTTCTATCTCTGTTTGTGCTAG,5.49
TTAGGTTCACTTTTCCTTTAGTGCTAG,3.94
TTAGGTCTCCTTATCGTTTAGTGCTAG,3.01
TCCACTTGTCTTTTCACTTTGTGCTAG,1.54
TTACGTATCCTACTGCTTTAGTGCTAG,2.27
GACGATTTCAGTCTGGAGACGTGCTAG,1.17
GACGGGTCCGGTTTCGGGACGTGCTAG,3.17
TTAGGTCTCGGTATAGGTTAGTGCTAG,0.436
GAAGTTCTAAATATCTTTGTGTGCTAG,-0.282
CTAGGTTTCGGTATCGGTTAGTGCTAG,8.56
TTAGGTATCGACACTGGGTAAGTGCTA,0.279
CACGGTCTCCTTCTCCTGACGTGCTAG,3.97
TTAGCTCTCAGACTGGATTAGTGCTAG,-0.214
GACGATTTCGGGACTCGAGACGTGCTA,1.69
TTAGGTTTCCTTATCCTTGAGTGCTAG,8.02
GTCGGTATCGGGACTGGGGACGTGCTA,2.91
CTAGGTTCCGGTTTCGGTTAGTGCTAG,7.24

# Excerpt of the above (block 1):
Strand,RBNS enrichment (R)
CCUAAGAAGUCUUCAAAAAUAGAUUGUACACCCGGUUUGACCUCACCCCCAUCCCACUGCUCUCUCUGAGCUGCAGCUGUAUGUAUAGCAGAUUAGGGGCUCCCUGGUUA,0.512
GCUCUCUUUGGGACCUGGCCGUGCUUCCUGCUCGUAUGACUACCAGGGGCCAUAUCUGUAUUAACUGGAUCAAGUAUAAGAAAAGCAAAGACUUCUCAGCUCUGACCUGC,1.29
UUGUAAAUAGUUGUUAUUUCUAUAUUUGGAUUGGUGAAAGACCUCAAGUUUAUAUGUAAAGACAUAACUGCCCUUAGUCAUGAAAUUGUUGUGACCUCUACUUUUUGUCA,0.61
UAAGUAGUUUUCAUGUUUUCAAUAUGCAGUUUUGAAAAUGAGGAUUCACCUAGACUUUUUUAGAUUUACUACUAGGAAACCUUCCUCAUAUGAAUAACCAUUUAUAUGUG,0.567
CAUUAUUAAUAUUUUUUUUAAACUAAUUUGGGGAGGGAGGGUUAGCUUAAGUGCUAAGUCAGGUGUGGAUCCACAGGAGGGUUCCAACAGAGUGUUUCCUCCACUGUAUA,0.948
CUGAUGUUGUGCACGUCAAUCACCGGGCACUUGCAUACUCUUAGAAACAGUUCGACUUCGGUUACUGCCUUCUCCCUUGAAAUCCUUGCUGCGUGCCCACCAGGAUUUCC,0.625
AGAAUGGCUCCAGCUGUGGGUGUGCACAAUGAGGGAGGAACUGCUUUCCCCCUUACUGUCAUUGGUCAGUGGAGCAGAUUCUCAUGGCUGUAGGUAGUUGCUACACAGGA,1.28
